Measurements collected from several papers.
A part holds a random share of what one study measured. Changes are numbered by the printed parent chain.

Series 1
Target: CCNB2, cyclin fold, Cln2 fusion (human)
Technique: yeast growth competition, sequencing
Sample: yeast
Notes: weak parent motif
Relative to: not given
Direction: higher = stronger binding
Measurement: normalised enrichment score
Starting sequence: SAMHD1 docking peptide (human); ASKSRVQLFKDDP; partner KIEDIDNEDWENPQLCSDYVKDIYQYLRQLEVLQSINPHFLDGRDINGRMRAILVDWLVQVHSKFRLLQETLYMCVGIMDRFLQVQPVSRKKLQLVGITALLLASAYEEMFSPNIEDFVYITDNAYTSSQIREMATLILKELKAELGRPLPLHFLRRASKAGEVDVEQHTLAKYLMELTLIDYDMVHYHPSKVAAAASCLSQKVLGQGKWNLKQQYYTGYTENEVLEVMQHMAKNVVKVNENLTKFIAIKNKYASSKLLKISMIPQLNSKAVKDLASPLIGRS
ASKSMVQLFKDDP [R5M]: -0.537
ASGSRVQLFKDDP [K3G]: 0.0129
ASKSRVQLFKKDP [D11K]: 0.495
ASKSRVQDFKDDP [L8D]: 0.291
ASKSRVLLFKDDP [Q7L]: -0.169
ASKSRVVLFKDDP [Q7V]: 0.0468
ASKSRVPLFKDDP [Q7P]: 0.0114
ASKSKVQLFKDDP [R5K]: 0.201
ASKSWVQLFKDDP [R5W]: 0.324
ASKSRVALFKDDP [Q7A]: -0.104
ASKSRVQLCKDDP [F9C]: 0.0894

Series 2
Target: Sal-like protein 4, full length isoform B (SALL4, Homo sapiens, UniProt Q9UJQ4-2, residues 1-616)
Technique: universal PBM
Form: double-stranded DNA, one strand shown
Sample: in vitro
Tested at: not given
Notes: 8-mer, flanks averaged, mean of replicates
Direction: higher = stronger binding
Measurement: E-score
Construct (chain): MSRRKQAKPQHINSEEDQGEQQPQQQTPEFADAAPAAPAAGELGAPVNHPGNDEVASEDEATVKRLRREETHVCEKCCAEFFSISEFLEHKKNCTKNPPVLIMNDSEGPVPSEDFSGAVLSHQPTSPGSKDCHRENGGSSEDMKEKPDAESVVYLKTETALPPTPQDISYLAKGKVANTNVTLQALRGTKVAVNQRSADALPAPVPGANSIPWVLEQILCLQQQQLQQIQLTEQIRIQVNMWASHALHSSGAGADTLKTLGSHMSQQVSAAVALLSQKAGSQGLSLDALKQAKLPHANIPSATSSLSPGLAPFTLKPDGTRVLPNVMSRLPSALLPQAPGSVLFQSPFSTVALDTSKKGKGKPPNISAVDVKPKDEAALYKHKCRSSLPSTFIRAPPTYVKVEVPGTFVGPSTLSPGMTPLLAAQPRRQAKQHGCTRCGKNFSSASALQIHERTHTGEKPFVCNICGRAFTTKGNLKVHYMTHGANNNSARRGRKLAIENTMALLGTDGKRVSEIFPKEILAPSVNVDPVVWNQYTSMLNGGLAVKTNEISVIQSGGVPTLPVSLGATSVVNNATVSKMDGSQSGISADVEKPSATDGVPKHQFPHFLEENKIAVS
CTCTCGGA: -0.131
AACGAAGG: -0.148
CCAGCTTC: -0.149
GCCGGCGA: -0.364
AGGCGAGC: -0.274
CCTCTAGA: -0.0818
GCTAGCTA: -0.187
AATGGGCC: -0.314
CACGCGTC: -0.0178

Series 3
Target: Histone acetyltransferase KAT6A, winged helix 2, GST fusion (KAT6A, Homo sapiens, UniProt Q92794, residues 85-181)
Technique: protein binding microarray
Form: double-stranded DNA, one strand shown
Sample: in vitro
Tested at: not given
Notes: 8-mer, flanks averaged, mean of 2 arrays, mostly near background
Relative to: not given
Direction: higher = stronger binding
Measurement: E-score
Target sequence (chain): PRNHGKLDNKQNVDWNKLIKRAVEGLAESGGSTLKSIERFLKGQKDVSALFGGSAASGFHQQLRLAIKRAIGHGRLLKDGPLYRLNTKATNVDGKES
GCCATCAC: -0.155
CGTGTCCA: 0.126
GTGACTAA: 0.0389
ACGCCGGG: 0.174
TAATGACA: -0.0947
ATCAGGAG: 0.107
TACCTCTA: -0.0348
GGCCAGTA: 0.0271

Series 4
Molecule: PhoQ, residues 284 288 289 292 302 303 GASLAW
Technique: Sort-seq
Measured: YFP reporter
Sample: E. coli
Notes: PhoQ-PhoP variant library
With: 10 µM Mg2+
Relative to: high Mg2+ state
Direction: higher = stronger signaling
Measurement: fold induction
PhoP, residues 12 14 15 18 19 GMGLL (Escherichia coli, UniProt P23836): 4.26
PhoP, residues 12 14 15 18 19 LFHKL (Escherichia coli, UniProt P23836): 10.7
PhoP, residues 12 14 15 18 19 QQAYL (Escherichia coli, UniProt P23836): 13.1

Excerpt of the above (series 3):
TACCTCTA: -0.0348
CGTGTCCA: 0.126
GCCATCAC: -0.155
ATCAGGAG: 0.107
TAATGACA: -0.0947
